Measured values gathered from unrelated publications.
A part holds a random share of what one study measured.

Study 1
Target: Sal-like protein 4, full length isoform B (SALL4, Homo sapiens, UniProt Q9UJQ4-2, residues 1-616)
Technique: universal PBM
Form: double-stranded DNA, one strand shown
Sample: in vitro
Concentration: not given
Setting: 8-mer, flanks averaged, mean of replicates
Direction: higher = stronger binding
Measurement: E-score
Residues (chain): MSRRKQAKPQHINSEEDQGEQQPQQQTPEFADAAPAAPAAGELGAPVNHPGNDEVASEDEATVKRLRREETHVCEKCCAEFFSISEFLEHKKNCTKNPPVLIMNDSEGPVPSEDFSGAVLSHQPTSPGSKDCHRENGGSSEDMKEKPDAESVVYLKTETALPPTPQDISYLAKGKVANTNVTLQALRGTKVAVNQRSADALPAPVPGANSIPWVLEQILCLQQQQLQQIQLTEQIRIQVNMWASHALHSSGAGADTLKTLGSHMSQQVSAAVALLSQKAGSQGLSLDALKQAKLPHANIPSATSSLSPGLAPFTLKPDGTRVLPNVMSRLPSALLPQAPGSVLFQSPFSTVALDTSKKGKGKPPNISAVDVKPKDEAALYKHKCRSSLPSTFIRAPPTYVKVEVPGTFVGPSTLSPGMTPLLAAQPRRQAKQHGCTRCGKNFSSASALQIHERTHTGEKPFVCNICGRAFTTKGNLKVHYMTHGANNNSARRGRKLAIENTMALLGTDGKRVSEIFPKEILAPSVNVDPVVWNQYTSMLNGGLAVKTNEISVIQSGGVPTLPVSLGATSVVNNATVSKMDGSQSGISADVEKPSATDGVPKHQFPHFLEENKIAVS
ATACGTAC: 0.148
ATTAAGAG: 0.197
GAGTATGA: 0.158
ACCTAATG: -0.0475
CACTGTGC: -0.108
ATTGTAAA: 0.337
GCAATTGA: -0.0621
ATCGATGA: 0.103

Study 2
Target: Interferon regulatory factor 3, full length, phosphomimetic (IRF3, Homo sapiens, UniProt Q14653, residues 1-427, S386D/S396D/S398D/S402D/T404D/S405D)
Technique: protein-binding microarray
Form: double-stranded DNA, one strand shown
Sample: in vitro
Concentration: 2540 nM top
Setting: 60-bp whole probe
With: salmon DNA 0.4 mg/ml
Reference: random background probes
Direction: higher = stronger binding
Measurement: fitted relative affinity
Shared flanks, not repeated: GCCTAGCAC … GTCTTGATTCGCTTGACGCTGCTG
Target sequence (chain): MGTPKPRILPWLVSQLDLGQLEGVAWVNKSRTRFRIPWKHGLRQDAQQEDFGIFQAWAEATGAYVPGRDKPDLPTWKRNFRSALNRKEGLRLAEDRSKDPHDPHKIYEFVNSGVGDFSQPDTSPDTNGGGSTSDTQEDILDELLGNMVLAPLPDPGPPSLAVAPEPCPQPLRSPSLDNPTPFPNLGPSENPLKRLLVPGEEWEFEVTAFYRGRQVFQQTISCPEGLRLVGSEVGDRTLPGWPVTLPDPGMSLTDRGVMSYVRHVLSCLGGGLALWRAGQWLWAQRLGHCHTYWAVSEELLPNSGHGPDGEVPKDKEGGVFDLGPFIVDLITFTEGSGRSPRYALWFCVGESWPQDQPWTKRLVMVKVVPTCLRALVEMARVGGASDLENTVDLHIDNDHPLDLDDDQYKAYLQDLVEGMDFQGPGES
CACTGACACCGATTTCATCACGTGCTA: 0.276 z-score
TTAGGTTTCGGTTCCGGATAGTGCTAG: 11.1 z-score
GACGATTTCAGAGTGGAGACGTGCTAG: 1.16 z-score
TTAGATATCAGGTATCGATTAGTGCTA: 0.851 z-score
TACGGACTGCTTTTCCTGACGTGCTAG: -0.0523 z-score

Study 3
Target: Histone acetyltransferase KAT6A, winged helix 1, GST fusion (KAT6A, Homo sapiens, UniProt Q92794, residues 1-85)
Technique: protein binding microarray
Form: double-stranded DNA, one strand shown
Sample: in vitro
Concentration: not given
Setting: 8-mer, flanks averaged, mean of 2 arrays, mostly near background
Reference: not given
Direction: higher = stronger binding
Measurement: E-score
Residues (chain): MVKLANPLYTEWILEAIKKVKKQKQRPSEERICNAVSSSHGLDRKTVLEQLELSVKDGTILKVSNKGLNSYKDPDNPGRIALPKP
GTATTTGA: -0.0833
ACAAAGAG: -0.207
GGAAAGAC: 0.00074
AGTGCGGC: 0.36
AGGTGGCA: -0.0859
CAATGTCA: -0.0544
AATATTGG: -0.171
AGCCACAC: -0.215

Single results of other studies
PhoQ, residues 284 288 289 292 302 303 HSSMNL
fold induction (PhoP, residues 12 14 15 18 19 SPWRL (Escherichia coli, UniProt P23836); Sort-seq, refers to: YFP reporter; E. coli; PhoQ-PhoP variant library, with: 10 µM Mg2+; reference: high Mg2+ state, higher = stronger signaling): 1.14

Repeated from above (study 3):
ACAAAGAG: -0.207
GGAAAGAC: 0.00074
AGTGCGGC: 0.36
